Measured values gathered from unrelated publications.
Lines come from different studies, so protocols differ. “And” joins repeats or separate records; there may be more than shown. ± gives the spread as reported.

`Nc1cccc2c1CN(C1CCC(=O)NC1=O)C2=O` (stereo not drawn) gave an EC50 of 2470 nM (BRD4-HiBiT cells; BRD4 degradation rescue, inhibitor; 2 h, together with: dBET6 500 nM).
`Cc1cc(Cl)c(Cl)cc1NC(=O)c1cc([N+](=O)[O-])c(N2CCNCC2)cc1Cl` has an EC50 of 3800 ± 1900 nM (J774.A1; cytotoxicity).
For `COc1cnc2cccc(N3CCc4c(cc(Cn5ccnc5C)cc4-c4cn(C)nc4C(F)(F)F)C3=O)c2c1`, the EC50 was 1230 nM (MINO; cell growth, inhibitor; 120 h).
`COc1ccc(C2CC3=C(C(=O)O2)C(c2ccccc2Cl)C(C(=O)OCc2ccccc2)=C(C)N3)cc1OC` (stereo not drawn) has an EC50 of > 20000 nM (J774.A1; cytotoxicity).
With `CCn1cc(-c2cc(Cn3ccnc3)cc3c2CCN([C@H](c2cc(OC)ccn2)C2CC2)C3=O)c(C(F)(F)F)n1` the EC50 was 154 nM (HLC1; cell growth, inhibitor; 120 h).
For `Cn1cc(-c2ccc(-c3cncc(Cl)c3N3CCC4(CCNC4=O)CC3)cc2)cn1`, “log2 fold change” read 3.43 (COLO 205; gene expression, microarray, item: LGALS1 mRNA; concentration not given, 2 h; baseline: untreated cells).
For `CCOC(=O)C1=C(C)NC2=C(C(=O)OC(c3ccccc3C)C2)C1c1ccccc1Cl` (stereo not drawn), the EC50 was > 20000 nM (J774.A1; cytotoxicity).
The EC50 of `O=C(Nc1cncc(-c2nc3ccccc3o2)c1)c1ccc(N2CCNCC2)c([N+](=O)[O-])c1` is reported as 900 nM (J774.A1; cytotoxicity).
The EC50 of `Cc1nn(-c2nc3c(F)cc(F)cc3s2)c(O)c1C(c1ccccc1C(F)(F)F)c1c(C)nn(-c2nc3c(F)cc(F)cc3s2)c1O` is reported as 18400 nM and 17900 nM and 18600 nM (THP1-Dual; IFN reporter gene, inhibitor; together with: HT-DNA).
`CC(C)C[C@H](NC(=O)[C@H](Cc1ccccc1)NC(=O)c1cnccn1)B(O)O` gave an EC50 of 84.9 nM (BRD4-HiBiT cells; BRD4 degradation rescue, inhibitor; 8 h, together with: dBET6 500 nM).
The EC50 of `CCCC1=C(C(=O)OCC)C(c2ccc(Cl)cc2C)C2=C(CC(c3ccc(OC)c(OC)c3)OC2=O)N1` (mixture of isomers) is reported as > 20000 nM (J774.A1; cytotoxicity).
The EC50 of `NS(=O)(=O)OC[C@H]1C[C@@H](Nc2ccnc3cc(-c4cccc(SC(F)(F)F)c4)nn23)[C@H](O)[C@@H]1O` is reported as 491 nM (BRD4-HiBiT cells; BRD4 degradation rescue, inhibitor; 2 h, together with: dBET6 500 nM).
`NC(=O)c1cnc2[nH]ccc2c1N[C@@H]1[C@@H]2CC3C[C@H]1C[C@@](O)(C3)C2` — result for “change from baseline”: 1.93% (flow cytometry, item: memory T cells (CD3+ CD45RA-); Japanese healthy subjects, peripheral blood; oral, 30 mg twice daily, day 7).
The EC50 of `CC(C)C[C@H](NC(=O)CNC(=O)c1cc(Cl)ccc1Cl)B(O)O` is reported as 149 nM (BRD4-HiBiT cells; BRD4 degradation rescue, inhibitor; 8 h, 50% degradation rescued, together with: dBET6 500 nM).
`O=C(Nc1ccc(Cl)c(Cl)c1)c1cc([N+](=O)[O-])c(F)cc1Cl` has an EC50 of 1800 ± 600 nM (J774.A1; cytotoxicity).
The EC50 of `CCn1cc(-c2cc(Cn3ccoc3=N)cc3c2CCN([C@@H](C)c2cc(OC)ccn2)C3=O)c(C(F)(F)F)n1` is reported as 145 nM (NCI-H1650; cell growth, inhibitor; 120 h).
For `Cc1cc(OCc2nnc(SC3CCCC3)n2-c2cccnc2)ccc1-c1ccc(S(C)(=O)=O)cc1`, the EC50 was 12200 nM (BRD4-HiBiT cells; BRD4 degradation rescue, inhibitor; 4 h, together with: dBET6 500 nM).
The Kd of `COC(=O)c1ccccc1Oc1nc(NC(C)C)nc(NC(C)C)n1` is reported as > 100000 nM (Cyclin-dependent kinase 2, with cyclin A (CDK2, Homo sapiens, UniProt P24941)).
With `CC(C)[C@H](NC(=O)[C@H](Cc1ccc(O)cc1)NC(=O)[C@H](Cc1ccc(O)cc1)NC(=O)[C@@H]1CCCN1C(=O)[C@H](CCC(=O)O)NC(=O)[C@H](CCC(=O)O)NC(=O)[C@H](Cc1c[nH]c2ccccc12)NC(=O)[C@@H]1CCCN1C(=O)[C@@H](NC(=O)[C@H](CCC(N)=O)NC(=O)c1ccc2c(c1)C(=O)OC21c2ccc(O)cc2Oc2cc(O)ccc21)C(C)C)C(=O)N[C@H](C(=O)N[C@@H](CCCCN)C(=O)N[C@@H](CCCCN)C(=O)N[C@@H](CO)C(=O)N[C@@H](CO)C(=O)NCC(=O)NCC(N)=O)C(C)C` the plasma concentration was 712 ng/mL (item: total compound; human, plasma; intravenous infusion, 40 mg, 2 h).
`CCN(N=Cc1ccc(Br)cc1)C(=O)C1CC(=O)N(c2ccc(F)cc2F)C1` (stereo not drawn) has an EC50 of 28900 ± 3100 nM (PPC-1; cell viability, MTT; 72 h).
With `Cc1ccc(-c2nc3ccccc3s2)cc1NC(=O)c1cc([N+](=O)[O-])c(NCCN)cc1Cl` the EC50 was 5000 ± 4500 nM (J774.A1; cytotoxicity).
`CCOC(=O)C1=C(C)NC2=C(C(=O)CC(c3ccc(Cl)c(OC)c3)C2)C1c1ccccc1Cl` (mixture of isomers) has an EC50 of > 20000 nM (J774.A1; cytotoxicity).
For `COc1cc(-c2oc3cc(O)cc(O)c3c(=O)c2O[C@@H]2O[C@H](CO)[C@@H](O)[C@H](O)[C@H]2O)ccc1O`, the EC50 was 280 nM (HepG2-ARE-Luc; Nrf2-ARE reporter gene, activator).
For `COc1ccc(C2CC3=C(C(=O)O2)C(c2ccccc2Cl)C(C(=O)OC(C)(C)C)=C(C)N3)cc1OC` (mixture of isomers), the EC50 was > 20000 nM (J774.A1; cytotoxicity).
`Cc1ccc(C=NNC(=O)C2CC(=O)N(c3ccc(F)cc3F)C2)cc1` (stereo not drawn) has an EC50 of 2500 ± 600 nM (PPC-1; cell viability, MTT; 72 h).
With `CNCc1ccc(-c2[nH]c3cc(F)cc4c3c2CCNC4=O)cc1` the cough incidence was 33.3% (patients; oral, 480 mg twice daily, all grades).
The EC50 of `CCOC(=O)C1=C(C)NC2=C(C(=O)OC(c3ccc(OC)c(OC)c3)C2)C1c1ccccc1` (mixture of isomers) is reported as > 20000 nM (J774.A1; cytotoxicity).
For `CC(C)C[C@@H](C=O)NC(=O)[C@H](CC(C)C)NC(=O)[C@H](CC(C)C)NC(=O)OCc1ccccc1`, the EC50 was 393 nM (BRD4-HiBiT cells; BRD4 degradation rescue, inhibitor; 4 h, together with: dBET6 500 nM).
`Cc1nn(-c2nc3ccccc3[nH]2)c(O)c1C(c1ccccc1C(=O)O)c1c(C)nn(-c2nc3ccccc3[nH]2)c1O` has an EC50 of > 20000 nM (THP1-Dual; IFNB1 luciferase reporter, inhibitor; together with: HT-DNA).
`CCOC(=O)C1=C(C)NC2=C(C(=O)CC(c3ccc(Cl)c(OC)c3)C2)C1c1ccc(Cl)cc1C` (mixture of isomers) gave an EC50 of > 20000 nM (J774.A1; cytotoxicity).
The EC50 of `Cc1nn(-c2nc3c(F)cc(F)cc3s2)c(O)c1C(c1ccccc1C(=O)O)c1c(C)nn(-c2nc3c(F)cc(F)cc3s2)c1O` is reported as > 20000 nM (THP1-Dual; IFNB1 luciferase reporter, inhibitor; together with: HT-DNA).
`CCCC1=C(C(=O)OCC)C(c2ccccc2Cl)C2=C(CC(c3ccc(OC)c(OC)c3)CC2=O)N1` (mixture of isomers) gave an EC50 of > 20000 nM (J774.A1; cytotoxicity).
For `CN(C)CCNS(=O)(=O)c1ccc(N/C=C2\C(=O)Nc3ccccc32)cc1`, the Kd was 5690 nM (CDK2 (Homo sapiens, UniProt P24941); binding, thermal shift).
For `CC(C)C[C@H](NC(=O)C[C@H](O)[C@H](CC(C)C)NC(=O)[C@H](Cc1c[nH]cn1)NC(=O)CNC(=O)[C@@H](NC(=O)[C@H](C)NC(=O)[C@H](Cc1c[nH]c2ccccc12)NC(=O)[C@H](CCC(N)=O)NC(=O)[C@@H](Cc1ccccc1)NC(=O)COCCOCCNC(=O)CCC(C(=O)O)N1CCN(CC(=O)O)CCN(CC(=O)O)CCN(CC(=O)O)CC1)C(C)C)C(N)=O` (stereo partly drawn) [lutetium-177 labelled], the tissue uptake was 0.2 ± 0.2 %ID/g (BALB/c nu/nu mice, muscle; intravenous, 750 pmol, 1 h, together with: PA 300 µg).
The EC50 of `Nc1ncnc2c1ncn2[C@@H]1O[C@H](CO)[C@@H](O)[C@H]1O` is reported as 2390 nM (HeLa, empty vector; calcium mobilization).
The EC50 of `COC[C@H](NC(=O)c1cnc(C)s1)C(=O)N[C@@H](COC)C(=O)N[C@@H](Cc1ccccc1)C(=O)[C@@]1(C)CO1` is reported as 9310 nM (BRD4-HiBiT cells; BRD4 degradation rescue, inhibitor; 2 h, 50% degradation rescued, together with: dBET6 500 nM).
`O=C(Nc1cncc(-c2nc3ccccc3o2)c1)c1cc([N+](=O)[O-])c(N2CCNCC2)cc1Cl` has an EC50 of 750 nM (J774.A1; cytotoxicity).
The EC50 of `NS(=O)(=O)OC[C@@H]1C[C@@H](n2ccc3c(N[C@H]4CCc5ccccc54)ncnc32)C[C@@H]1O` is reported as 94.4 nM (BRD4-HiBiT cells; BRD4 degradation rescue, inhibitor; 2 h, together with: dBET6 500 nM).
The tissue uptake of `CC(C)C[C@H](NC(=O)C[C@H](O)[C@H](CC(C)C)NC(=O)[C@H](Cc1c[nH]cn1)NC(=O)CNC(=O)[C@@H](NC(=O)[C@H](C)NC(=O)[C@H](Cc1c[nH]c2ccccc12)NC(=O)[C@H](CCC(N)=O)NC(=O)[C@@H](Cc1ccccc1)NC(=O)COCCOCCNC(=O)CCC(C(=O)O)N1CCN(CC(=O)O)CCN(CC(=O)O)CC1)C(C)C)C(N)=O` (stereo partly drawn) [lutetium-177 labelled] is reported as 2.7 ± 0.4 %ID/g (female BALB/c nu/nu mice, stomach; intravenous, 50 pmol, 1 h).

Repeated from above:
`NC(=O)c1cnc2[nH]ccc2c1N[C@@H]1[C@@H]2CC3C[C@H]1C[C@@](O)(C3)C2` — result for “change from baseline”: 1.93% (flow cytometry, item: memory T cells (CD3+ CD45RA-); Japanese healthy subjects, peripheral blood; oral, 30 mg twice daily, day 7).
The EC50 of `COC[C@H](NC(=O)c1cnc(C)s1)C(=O)N[C@@H](COC)C(=O)N[C@@H](Cc1ccccc1)C(=O)[C@@]1(C)CO1` is reported as 9310 nM (BRD4-HiBiT cells; BRD4 degradation rescue, inhibitor; 2 h, 50% degradation rescued, together with: dBET6 500 nM).
For `COc1cnc2cccc(N3CCc4c(cc(Cn5ccnc5C)cc4-c4cn(C)nc4C(F)(F)F)C3=O)c2c1`, the EC50 was 1230 nM (MINO; cell growth, inhibitor; 120 h).
For `Cc1cc(OCc2nnc(SC3CCCC3)n2-c2cccnc2)ccc1-c1ccc(S(C)(=O)=O)cc1`, the EC50 was 12200 nM (BRD4-HiBiT cells; BRD4 degradation rescue, inhibitor; 4 h, together with: dBET6 500 nM).
For `CN(C)CCNS(=O)(=O)c1ccc(N/C=C2\C(=O)Nc3ccccc32)cc1`, the Kd was 5690 nM (CDK2 (Homo sapiens, UniProt P24941); binding, thermal shift).
